Measured values pooled from the literature.
Chain of UniProt Q9C098 (whole entry, looked up): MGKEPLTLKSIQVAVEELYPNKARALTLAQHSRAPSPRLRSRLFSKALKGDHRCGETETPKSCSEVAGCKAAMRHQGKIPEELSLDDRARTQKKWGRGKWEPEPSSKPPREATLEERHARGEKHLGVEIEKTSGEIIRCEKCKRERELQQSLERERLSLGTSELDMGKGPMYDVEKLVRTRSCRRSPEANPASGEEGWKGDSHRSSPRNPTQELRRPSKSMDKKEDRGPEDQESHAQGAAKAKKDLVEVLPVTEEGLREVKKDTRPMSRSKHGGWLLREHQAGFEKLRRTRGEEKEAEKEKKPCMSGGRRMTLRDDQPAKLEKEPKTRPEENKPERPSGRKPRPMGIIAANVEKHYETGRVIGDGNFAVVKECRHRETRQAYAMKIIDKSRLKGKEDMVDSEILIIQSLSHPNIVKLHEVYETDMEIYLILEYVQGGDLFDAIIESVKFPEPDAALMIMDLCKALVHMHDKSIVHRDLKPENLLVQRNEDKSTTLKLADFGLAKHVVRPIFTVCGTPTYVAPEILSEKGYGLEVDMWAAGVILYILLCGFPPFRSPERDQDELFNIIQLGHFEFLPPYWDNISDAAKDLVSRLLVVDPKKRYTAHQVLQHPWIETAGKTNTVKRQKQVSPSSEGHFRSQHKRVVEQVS
Chain of UniProt P49674 (whole entry, looked up): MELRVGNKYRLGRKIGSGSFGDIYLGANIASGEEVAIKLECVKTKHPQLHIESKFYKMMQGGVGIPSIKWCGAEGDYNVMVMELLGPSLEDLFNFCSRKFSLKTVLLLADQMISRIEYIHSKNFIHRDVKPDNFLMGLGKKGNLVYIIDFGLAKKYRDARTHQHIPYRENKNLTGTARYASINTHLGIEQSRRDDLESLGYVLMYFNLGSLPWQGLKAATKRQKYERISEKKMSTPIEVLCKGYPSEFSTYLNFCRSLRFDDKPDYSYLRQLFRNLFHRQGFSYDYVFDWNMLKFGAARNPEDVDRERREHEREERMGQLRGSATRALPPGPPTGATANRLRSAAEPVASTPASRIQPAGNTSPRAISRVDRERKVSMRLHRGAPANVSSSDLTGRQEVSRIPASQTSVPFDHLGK
Chain of UniProt Q09429 (whole entry, looked up): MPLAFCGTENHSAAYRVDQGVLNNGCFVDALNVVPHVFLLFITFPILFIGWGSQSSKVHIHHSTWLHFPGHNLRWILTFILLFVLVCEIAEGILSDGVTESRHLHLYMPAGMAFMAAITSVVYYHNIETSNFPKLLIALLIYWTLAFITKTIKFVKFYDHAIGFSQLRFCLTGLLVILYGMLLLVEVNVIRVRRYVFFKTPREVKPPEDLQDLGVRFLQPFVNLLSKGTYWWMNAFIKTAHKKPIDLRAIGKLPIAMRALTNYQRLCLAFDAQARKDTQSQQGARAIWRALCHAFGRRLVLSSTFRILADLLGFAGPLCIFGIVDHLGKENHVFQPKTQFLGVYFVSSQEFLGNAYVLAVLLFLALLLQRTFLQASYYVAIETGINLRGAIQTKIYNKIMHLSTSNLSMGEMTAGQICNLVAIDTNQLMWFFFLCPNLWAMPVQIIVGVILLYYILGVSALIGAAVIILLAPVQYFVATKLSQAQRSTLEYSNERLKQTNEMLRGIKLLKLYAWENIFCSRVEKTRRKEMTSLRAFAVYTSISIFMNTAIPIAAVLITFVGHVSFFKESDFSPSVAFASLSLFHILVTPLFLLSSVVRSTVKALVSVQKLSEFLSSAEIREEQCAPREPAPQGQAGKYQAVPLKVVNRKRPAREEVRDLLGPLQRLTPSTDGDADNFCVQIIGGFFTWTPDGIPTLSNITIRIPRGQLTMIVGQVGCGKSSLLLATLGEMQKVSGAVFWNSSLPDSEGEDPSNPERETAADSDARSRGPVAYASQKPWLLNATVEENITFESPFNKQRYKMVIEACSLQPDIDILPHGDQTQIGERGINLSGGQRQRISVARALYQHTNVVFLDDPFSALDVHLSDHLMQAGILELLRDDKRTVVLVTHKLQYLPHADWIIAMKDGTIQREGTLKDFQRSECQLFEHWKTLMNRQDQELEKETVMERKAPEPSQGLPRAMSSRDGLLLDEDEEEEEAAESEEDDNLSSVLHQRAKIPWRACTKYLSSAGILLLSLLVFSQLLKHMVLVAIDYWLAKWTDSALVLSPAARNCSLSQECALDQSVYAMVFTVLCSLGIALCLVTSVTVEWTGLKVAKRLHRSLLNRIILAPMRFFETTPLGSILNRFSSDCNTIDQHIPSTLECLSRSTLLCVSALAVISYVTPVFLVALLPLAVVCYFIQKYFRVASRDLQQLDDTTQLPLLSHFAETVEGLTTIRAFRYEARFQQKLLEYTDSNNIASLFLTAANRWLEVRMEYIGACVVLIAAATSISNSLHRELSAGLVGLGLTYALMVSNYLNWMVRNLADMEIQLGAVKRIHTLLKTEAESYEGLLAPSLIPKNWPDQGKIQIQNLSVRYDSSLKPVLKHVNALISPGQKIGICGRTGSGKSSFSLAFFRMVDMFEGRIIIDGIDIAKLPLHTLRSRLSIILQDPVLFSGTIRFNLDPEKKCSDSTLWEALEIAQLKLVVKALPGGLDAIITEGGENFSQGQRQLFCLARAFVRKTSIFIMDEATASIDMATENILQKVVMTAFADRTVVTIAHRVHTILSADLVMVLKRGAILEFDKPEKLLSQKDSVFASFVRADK
Chain of UniProt P25021 (whole entry, looked up): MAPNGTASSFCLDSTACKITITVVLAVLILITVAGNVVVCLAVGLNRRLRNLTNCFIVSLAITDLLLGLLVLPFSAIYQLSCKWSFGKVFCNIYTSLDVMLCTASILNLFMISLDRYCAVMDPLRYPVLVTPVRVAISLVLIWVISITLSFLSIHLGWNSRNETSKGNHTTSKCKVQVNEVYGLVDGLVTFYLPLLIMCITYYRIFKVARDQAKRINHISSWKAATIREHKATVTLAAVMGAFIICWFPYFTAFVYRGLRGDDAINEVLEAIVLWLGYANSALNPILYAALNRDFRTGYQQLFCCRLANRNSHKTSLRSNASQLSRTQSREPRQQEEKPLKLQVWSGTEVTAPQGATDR
Chain of UniProt P41594 (whole entry, looked up): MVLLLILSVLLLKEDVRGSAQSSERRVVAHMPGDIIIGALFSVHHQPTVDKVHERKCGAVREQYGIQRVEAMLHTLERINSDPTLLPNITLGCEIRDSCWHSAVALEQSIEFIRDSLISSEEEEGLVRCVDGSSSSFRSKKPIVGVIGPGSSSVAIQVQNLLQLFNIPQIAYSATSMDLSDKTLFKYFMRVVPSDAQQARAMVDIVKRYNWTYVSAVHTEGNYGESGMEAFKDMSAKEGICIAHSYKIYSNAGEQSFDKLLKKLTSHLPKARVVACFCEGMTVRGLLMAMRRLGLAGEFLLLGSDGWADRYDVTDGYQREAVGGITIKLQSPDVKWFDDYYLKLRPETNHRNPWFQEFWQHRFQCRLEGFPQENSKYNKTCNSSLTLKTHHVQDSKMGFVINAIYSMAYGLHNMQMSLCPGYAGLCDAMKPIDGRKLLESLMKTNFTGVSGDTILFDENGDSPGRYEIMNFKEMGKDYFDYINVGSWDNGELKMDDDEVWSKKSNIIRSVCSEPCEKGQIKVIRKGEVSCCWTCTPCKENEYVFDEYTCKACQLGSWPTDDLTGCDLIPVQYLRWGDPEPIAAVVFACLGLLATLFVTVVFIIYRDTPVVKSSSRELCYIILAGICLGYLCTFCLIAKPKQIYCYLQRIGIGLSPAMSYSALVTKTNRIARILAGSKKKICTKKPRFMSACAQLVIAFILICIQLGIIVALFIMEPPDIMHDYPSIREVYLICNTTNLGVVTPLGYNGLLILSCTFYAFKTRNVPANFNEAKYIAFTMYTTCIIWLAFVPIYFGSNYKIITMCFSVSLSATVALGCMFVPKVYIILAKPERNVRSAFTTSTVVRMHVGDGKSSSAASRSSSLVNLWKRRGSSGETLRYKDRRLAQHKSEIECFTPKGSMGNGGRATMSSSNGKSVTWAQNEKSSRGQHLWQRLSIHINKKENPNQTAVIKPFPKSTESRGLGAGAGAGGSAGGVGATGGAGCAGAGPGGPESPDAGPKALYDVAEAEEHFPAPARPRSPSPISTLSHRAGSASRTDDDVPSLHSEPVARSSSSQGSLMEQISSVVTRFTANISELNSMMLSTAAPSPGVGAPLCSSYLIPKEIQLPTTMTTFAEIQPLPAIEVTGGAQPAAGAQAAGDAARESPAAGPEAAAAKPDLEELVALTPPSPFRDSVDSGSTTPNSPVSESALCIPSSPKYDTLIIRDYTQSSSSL
Chain of UniProt P21917 (whole entry, looked up): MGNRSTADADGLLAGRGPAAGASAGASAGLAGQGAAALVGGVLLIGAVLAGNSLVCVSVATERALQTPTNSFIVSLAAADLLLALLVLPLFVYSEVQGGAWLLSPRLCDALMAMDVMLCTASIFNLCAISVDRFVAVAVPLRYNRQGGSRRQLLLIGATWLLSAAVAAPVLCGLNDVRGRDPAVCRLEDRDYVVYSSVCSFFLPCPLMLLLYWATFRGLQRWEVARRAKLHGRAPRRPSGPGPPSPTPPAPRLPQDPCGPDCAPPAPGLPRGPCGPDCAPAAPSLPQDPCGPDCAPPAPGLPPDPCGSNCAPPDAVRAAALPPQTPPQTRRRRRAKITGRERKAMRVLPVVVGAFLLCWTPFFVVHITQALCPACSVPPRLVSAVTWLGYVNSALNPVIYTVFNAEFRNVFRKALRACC
Chain of UniProt P78368 (whole entry, looked up): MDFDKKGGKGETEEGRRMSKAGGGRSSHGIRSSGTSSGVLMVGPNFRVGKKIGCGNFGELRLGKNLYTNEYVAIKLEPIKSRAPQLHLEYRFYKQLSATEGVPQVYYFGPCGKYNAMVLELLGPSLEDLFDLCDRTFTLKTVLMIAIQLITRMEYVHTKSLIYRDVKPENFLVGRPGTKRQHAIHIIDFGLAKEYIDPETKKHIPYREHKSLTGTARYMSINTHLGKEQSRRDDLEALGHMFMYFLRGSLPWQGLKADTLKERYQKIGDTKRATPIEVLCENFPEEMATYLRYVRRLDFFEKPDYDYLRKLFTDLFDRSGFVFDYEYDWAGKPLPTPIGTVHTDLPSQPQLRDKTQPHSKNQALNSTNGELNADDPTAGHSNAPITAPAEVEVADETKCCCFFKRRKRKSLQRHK

SMILES	target	assay	system	setting	inhibition
O=c1ccc2ccccc2o1	HRH2 (Homo sapiens, UniProt P25021)	antagonist radioligand binding	–	10 µM, SafetyScreen44	4.76%
CN(CCN1CCC(OC(=O)Nc2ccccc2-c2ccccc2)CC1)C(=O)c1ccc(CN2CCC(C(N)=O)CC2)cc1	Abcc8 (Rattus norvegicus, UniProt Q09429)	radioligand binding	–	1 µM, added: [3H]glibenclamide 0.1 nM	10%
FC(F)(F)c1cccc(Nc2nc(NCCOc3ccccc3)nc3[nH]cnc23)c1	CSNK1E (Homo sapiens, UniProt P49674)	Z'-LYTE or Adapta	–	5 µM	19%
Cn1cccc1-c1cccnc1	DRD4 (Homo sapiens, UniProt P21917)	binding	–	50 µM	-23.3%
COc1cc2c(NC3CCN(C)CC3)cc(-c3ccc(C)o3)nc2cc1OCCCN1CCCC1	DNMT1 (Homo sapiens, UniProt P26358)	enzyme activity	–	5.08 nM	-4.97%
CN(C(=O)n1cnc(-c2ccc[n+]([O-])c2)c1)C1CCCCC1	GRM5 (Homo sapiens, UniProt P41594)	radioligand binding	–	50 µM, added: [3H]quisqualic acid	-10%
COc1cc(Nc2ncc(F)c(Nc3ccc4c(n3)NC(=O)C(C)(C)O4)n2)cc(OC)c1OC	DCLK3 (Homo sapiens, UniProt Q9C098)	binding, KINOMEscan	–	10 µM, DCAMKL3 kinase	96%
O=C(Nc1cnccc1Cl)N1CCN(Cc2ccc3c(c2)OC(F)(F)O3)CC1	GABAB1B receptor, human	binding	–	50 µM, added: [3H]CGP-54626	5%
CN1CCN(c2cc(-c3ccncc3)c(-c3ccc4ccccc4c3)nn2)CC1	CHRM2 (Homo sapiens, UniProt P08172)	antagonist, FLIPR	–	10 µM	-1.2%
O=C(Nc1cccnn1)N1CCC(=Cc2cccc(Oc3ccc(C(F)(F)F)cn3)c2)CC1	Monoacylglycerol lipase ABHD6 (Abhd6, Rattus norvegicus, UniProt Q5XI64)	probe labelling, inhibitor, competitive ABPP with azido-FP probe, measured: ABHD6	rat brain membrane fraction	0.01 µM	1.7%
COc1ccc(N2C(=O)N(c3c(C)cccc3Cl)Cc3cnc(Nc4ccc(C5CCN(C)CC5)cc4OC)nc32)nc1	CSNK1G2 (Homo sapiens, UniProt P78368)	kinase activity, inhibitor	–	0.5 µM, kinase CK1-GAMMA2	3%

Excerpt of the above:
SMILES	target	assay	system	setting	inhibition
O=C(Nc1cnccc1Cl)N1CCN(Cc2ccc3c(c2)OC(F)(F)O3)CC1	GABAB1B receptor, human	binding	–	50 µM, added: [3H]CGP-54626	5%
